Published values pooled from the literature.
Compare with care: the assays were run in different laboratories. Values joined by “and” are separate records of one study, mostly repeats; a detail may differ. ± gives the spread as reported.
prp N63Q: Ribosomal processing cysteine protease Prp (prp, Staphylococcus aureus, UniProt Q2FXS9, N63Q)
UniProt Q15349, sequence (whole entry, looked up): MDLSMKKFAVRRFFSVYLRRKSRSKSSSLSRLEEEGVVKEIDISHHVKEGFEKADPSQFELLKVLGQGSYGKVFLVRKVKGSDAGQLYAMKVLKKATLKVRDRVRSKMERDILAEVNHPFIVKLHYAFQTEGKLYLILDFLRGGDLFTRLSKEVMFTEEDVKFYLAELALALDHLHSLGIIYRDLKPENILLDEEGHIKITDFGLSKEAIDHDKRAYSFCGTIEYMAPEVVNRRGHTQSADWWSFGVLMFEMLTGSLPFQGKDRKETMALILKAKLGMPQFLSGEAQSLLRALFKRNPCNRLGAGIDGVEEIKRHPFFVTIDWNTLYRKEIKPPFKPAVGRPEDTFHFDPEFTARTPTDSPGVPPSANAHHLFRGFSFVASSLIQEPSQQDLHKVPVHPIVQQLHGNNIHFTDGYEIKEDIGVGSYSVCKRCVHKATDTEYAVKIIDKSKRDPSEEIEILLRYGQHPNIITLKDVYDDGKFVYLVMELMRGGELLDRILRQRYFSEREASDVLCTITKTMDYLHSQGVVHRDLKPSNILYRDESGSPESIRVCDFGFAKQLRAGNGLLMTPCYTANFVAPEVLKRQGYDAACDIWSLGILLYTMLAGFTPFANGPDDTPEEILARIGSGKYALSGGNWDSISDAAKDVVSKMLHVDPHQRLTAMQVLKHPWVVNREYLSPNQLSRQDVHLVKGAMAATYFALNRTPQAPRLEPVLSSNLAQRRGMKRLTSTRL
UniProt Q13557, sequence (whole entry, looked up): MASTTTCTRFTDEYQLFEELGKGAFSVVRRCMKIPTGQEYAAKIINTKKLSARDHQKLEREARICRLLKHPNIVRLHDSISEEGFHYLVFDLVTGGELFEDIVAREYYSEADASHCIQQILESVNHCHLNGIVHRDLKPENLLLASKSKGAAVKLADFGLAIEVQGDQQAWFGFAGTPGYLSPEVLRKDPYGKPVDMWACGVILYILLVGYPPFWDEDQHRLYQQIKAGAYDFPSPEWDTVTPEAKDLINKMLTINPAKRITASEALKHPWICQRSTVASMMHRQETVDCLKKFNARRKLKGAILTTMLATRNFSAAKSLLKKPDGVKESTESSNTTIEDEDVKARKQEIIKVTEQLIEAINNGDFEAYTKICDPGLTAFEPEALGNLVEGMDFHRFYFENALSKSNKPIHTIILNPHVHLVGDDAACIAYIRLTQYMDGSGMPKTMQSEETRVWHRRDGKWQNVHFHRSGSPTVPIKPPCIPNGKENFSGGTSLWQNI
UniProt Q96PY6, sequence (whole entry, looked up): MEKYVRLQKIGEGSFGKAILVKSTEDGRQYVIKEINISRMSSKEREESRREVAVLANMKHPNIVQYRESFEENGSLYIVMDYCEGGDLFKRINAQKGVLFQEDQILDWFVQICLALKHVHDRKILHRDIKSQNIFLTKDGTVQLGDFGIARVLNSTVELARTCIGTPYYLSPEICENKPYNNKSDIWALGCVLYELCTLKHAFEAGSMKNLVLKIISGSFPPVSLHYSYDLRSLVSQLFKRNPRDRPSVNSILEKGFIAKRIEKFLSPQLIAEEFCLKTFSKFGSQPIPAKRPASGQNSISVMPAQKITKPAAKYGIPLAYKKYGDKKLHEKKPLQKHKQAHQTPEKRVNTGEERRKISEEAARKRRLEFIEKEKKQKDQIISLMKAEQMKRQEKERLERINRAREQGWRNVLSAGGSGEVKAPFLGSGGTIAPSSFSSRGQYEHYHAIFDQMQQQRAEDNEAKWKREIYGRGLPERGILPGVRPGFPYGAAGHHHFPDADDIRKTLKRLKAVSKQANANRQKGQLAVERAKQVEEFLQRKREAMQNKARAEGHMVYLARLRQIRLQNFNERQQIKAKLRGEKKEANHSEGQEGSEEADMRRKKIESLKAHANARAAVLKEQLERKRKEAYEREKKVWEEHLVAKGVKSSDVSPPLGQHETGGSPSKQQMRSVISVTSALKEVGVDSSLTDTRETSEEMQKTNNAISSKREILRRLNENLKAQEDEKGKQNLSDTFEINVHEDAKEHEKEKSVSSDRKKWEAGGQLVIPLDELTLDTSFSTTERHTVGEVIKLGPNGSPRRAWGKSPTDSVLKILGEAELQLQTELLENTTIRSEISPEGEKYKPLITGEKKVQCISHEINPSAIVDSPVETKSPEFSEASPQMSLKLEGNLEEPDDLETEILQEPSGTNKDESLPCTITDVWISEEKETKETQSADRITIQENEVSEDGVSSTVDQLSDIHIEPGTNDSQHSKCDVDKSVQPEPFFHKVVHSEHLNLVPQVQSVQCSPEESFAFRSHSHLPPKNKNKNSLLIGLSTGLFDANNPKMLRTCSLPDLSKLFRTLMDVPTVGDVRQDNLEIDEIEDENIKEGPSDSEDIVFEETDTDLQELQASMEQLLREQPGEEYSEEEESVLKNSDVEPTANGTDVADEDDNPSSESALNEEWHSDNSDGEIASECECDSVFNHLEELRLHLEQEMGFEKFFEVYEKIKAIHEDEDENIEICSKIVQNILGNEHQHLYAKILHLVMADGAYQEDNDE
UniProt Q09013, sequence (whole entry, looked up): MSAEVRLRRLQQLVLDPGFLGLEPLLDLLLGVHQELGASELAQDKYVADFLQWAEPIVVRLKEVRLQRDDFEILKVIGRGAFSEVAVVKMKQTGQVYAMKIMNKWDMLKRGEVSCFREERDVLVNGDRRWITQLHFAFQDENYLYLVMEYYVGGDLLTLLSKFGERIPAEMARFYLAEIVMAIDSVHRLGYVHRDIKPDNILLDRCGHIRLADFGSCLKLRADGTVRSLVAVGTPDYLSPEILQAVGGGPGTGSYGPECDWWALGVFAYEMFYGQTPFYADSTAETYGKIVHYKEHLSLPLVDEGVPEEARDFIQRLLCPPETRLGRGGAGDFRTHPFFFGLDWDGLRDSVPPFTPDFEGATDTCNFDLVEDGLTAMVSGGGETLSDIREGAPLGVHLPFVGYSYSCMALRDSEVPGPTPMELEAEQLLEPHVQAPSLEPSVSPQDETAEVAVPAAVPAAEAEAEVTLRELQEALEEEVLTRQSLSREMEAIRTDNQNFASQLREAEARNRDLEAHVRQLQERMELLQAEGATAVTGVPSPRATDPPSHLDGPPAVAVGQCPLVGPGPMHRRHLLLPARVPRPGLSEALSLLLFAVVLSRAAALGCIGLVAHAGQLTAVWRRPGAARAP
UniProt Q99788, sequence (whole entry, looked up): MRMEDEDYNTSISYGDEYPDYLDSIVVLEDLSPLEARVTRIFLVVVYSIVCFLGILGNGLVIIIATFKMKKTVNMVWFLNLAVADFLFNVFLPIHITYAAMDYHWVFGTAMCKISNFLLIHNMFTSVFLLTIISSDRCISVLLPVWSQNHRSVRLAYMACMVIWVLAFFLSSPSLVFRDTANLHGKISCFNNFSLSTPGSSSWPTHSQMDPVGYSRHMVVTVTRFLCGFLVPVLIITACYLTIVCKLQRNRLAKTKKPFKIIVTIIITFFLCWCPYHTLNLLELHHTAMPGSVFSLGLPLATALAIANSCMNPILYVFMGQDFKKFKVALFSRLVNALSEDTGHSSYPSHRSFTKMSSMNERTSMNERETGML

O=C(Nc1cccnn1)N1CCC(=Cc2cccc(Oc3ccc(C(F)(F)F)cn3)c2)CC1
inhibition (DMPK (Homo sapiens, UniProt Q09013); kinase activity, inhibitor; 50 µM, with: Axltide substrate): -1%

COc1cc(Nc2ncc(F)c(Nc3ccc4c(n3)NC(=O)C(C)(C)O4)n2)cc(OC)c1OC
inhibition (RPS6KA2 (Homo sapiens, UniProt Q15349); KINOMEscan; 10 µM, RSK3(Kin.Dom.1-N-terminal)): 5%

CN(C(=O)n1cnc(-c2ccc[n+]([O-])c2)c1)C1CCCCC1
inhibition (AMPA receptor, rat; binding; 50 µM, with: [3H]AMPA): 6%

COc1ccc(NC(=O)c2ccc(C(=N)N(C)C)cc2)c(C(=O)Nc2ccc(Cl)cn2)c1
inhibition (prp N63Q; enzyme activity, inhibitor; 10 µM, prp 21.4 nM, with: FITC peptide substrate 0.5 µM): 27.2 ± 20%

COc1ccc(N2C(=O)N(c3c(C)cccc3Cl)Cc3cnc(Nc4ccc(C5CCN(C)CC5)cc4OC)nc32)nc1
inhibition (NEK1 (Homo sapiens, UniProt Q96PY6); kinase activity; 0.5 µM): 5.55%

CC(=O)NC[C@H]1[C@H](O)[C@H](O)[C@@H]2[C@H](O)C[C@@H](CO)N21
inhibition (β-N-acetylglucosaminidase; enzyme activity, inhibitor, colorimetric; Canavalia ensiformis; 0.161 nM, with: p-nitrophenyl GlcNAc substrate): 18.5% and 18.7%

CC(C)C[C@@H](C=O)NC(=O)[C@H](CC(C)C)NC(=O)[C@H](CC(C)C)NC(=O)OCc1ccccc1
inhibition (prp N63Q; enzyme activity, inhibitor; 10 µM, prp 21.4 nM, with: FITC peptide substrate 0.5 µM): -17 ± 10.3%

CN1CCN(c2cc(-c3ccncc3)c(-c3ccc4ccccc4c3)nn2)CC1
inhibition (CMKLR1 (Homo sapiens, UniProt Q99788); antagonist, FLIPR; 10 µM): 26.4%

CC(=O)Oc1ccccc1C(=O)O
inhibition (prp N63Q; enzyme activity, inhibitor; 10 µM, prp 21.4 nM, with: FITC peptide substrate 0.5 µM): 10.6 ± 6.3%

O=C(Nc1cnccc1Cl)N1CCN(Cc2ccc3c(c2)OC(F)(F)O3)CC1
inhibition (CAMK2D (Homo sapiens, UniProt Q13557); enzyme activity, inhibitor; 50 µM, with: autocamtide-2): 11%

For quick reference, copied from above:
CC(=O)Oc1ccccc1C(=O)O
inhibition (prp N63Q; enzyme activity, inhibitor; 10 µM, prp 21.4 nM, with: FITC peptide substrate 0.5 µM): 10.6 ± 6.3%

CN(C(=O)n1cnc(-c2ccc[n+]([O-])c2)c1)C1CCCCC1
inhibition (AMPA receptor, rat; binding; 50 µM, with: [3H]AMPA): 6%
